{"data": "Measurements pooled from the literature", "note": "“And” joins repeats or separate records; there may be more than shown. ± marks the error that the study gave."}
{"SMILES": "COC1=C(OC)[C@H](O)[C@H](C/C=C(\\C)CC/C=C(\\C)CCC=C(C)C)[C@@H](C)C1=O", "system": "mouse, BALB/c, male, whole blood", "setting": "oral, 50 mg/kg, 1 h", "endpoint": "blood concentration", "result": "41.8 nM and 30.9 nM"}
{"SMILES": "CCc1cnc(NC(=O)c2cc(S(=O)(=O)N3CCOCC3)ccc2N(C)C2CCCC2)s1", "system": "mouse", "setting": "intraperitoneal, three doses every other day, 24 h after last dose", "how to read": "baseline: vehicle", "endpoint": "blood counts, chemistry, organ cytopathology", "result": "no effect"}
{"SMILES": "Cc1cc(Nc2ccc(S(F)(F)(F)(F)F)cc2)n2nc(C(C)(F)F)nc2n1", "system": "CD-1 mouse, female, whole blood", "setting": "oral, 300 mg/kg daily, 8 h after dose 1, spray-dried dispersion", "endpoint": "blood concentration", "result": "318000 ± 144000 nM"}
{"SMILES": "CC(=O)OC[C@H]1OC(OC(C)=O)[C@@H](NC(=O)CN=[N+]=[N-])[C@@H](OC(C)=O)[C@@H]1OC(C)=O (some centres unmarked)", "assay": "item: RBC and WBC", "system": "C57BL/6 mouse", "setting": "dose not given", "how to read": "baseline: PBS", "endpoint": "blood cell counts", "result": "no effect"}
{"SMILES": "CN[C@H](CC(C)C)C(=O)N[C@H]1C(=O)N[C@@H](CC(N)=O)C(=O)N[C@H]2C(=O)N[C@H]3C(=O)N[C@H](C(=O)N[C@H](C(=O)O)c4cc(O)cc(O)c4-c4cc3ccc4O)[C@H](O)c3ccc(c(Cl)c3)Oc3cc2cc(c3O[C@@H]2O[C@H](CO)[C@@H](O)[C@H](O)[C@H]2O[C@H]2C[C@](C)(N)[C@H](O)[C@H](C)O2)Oc2ccc(cc2Cl)[C@H]1O", "system": "C57BL/6 mouse", "setting": "ip, 20 mg/kg, 7 days", "how to read": "baseline: control", "endpoint": "blood urea nitrogen", "result": "increased"}
{"SMILES": "CC1(C)c2nc(-c3ccc(F)cc3)c(Nc3ccc(F)cc3)n2CCN1C(=O)CN", "system": "mouse", "how to read": "baseline: blood over plasma", "endpoint": "blood to plasma ratio", "result": 1.56}
{"SMILES": "O=C(O)CCCOc1ccc([18F])cc1-c1cc(-c2ccccc2C(F)(F)F)n(-c2ccccc2)n1", "assay": "18F biodistribution", "system": "male ddY mouse, whole blood", "setting": "intravenous, 2.1 MBq, 5 min", "endpoint": "blood radioactivity", "result": "0.29 ± 0.08 SUV"}
{"SMILES": "CCCCCNC(=O)N1CCC(CN(Cc2ccc(Cl)cc2)Cc2ccc([N+](=O)[O-])s2)C1 (centres unmarked)", "assay": "item: NE%", "system": "C57BL/6 mouse, blood", "setting": "100 mg/kg twice daily, 7 days", "endpoint": "blood cell fraction", "result": "18 ± 3.6%"}
{"note": "A few entries again:"}
{"SMILES": "Cc1cc(Nc2ccc(S(F)(F)(F)(F)F)cc2)n2nc(C(C)(F)F)nc2n1", "system": "CD-1 mouse, female, whole blood", "setting": "oral, 300 mg/kg daily, 8 h after dose 1, spray-dried dispersion", "endpoint": "blood concentration", "result": "318000 ± 144000 nM"}
